# Experimental data gathered from unrelated publications.
# Compare with care: the assays were run in different laboratories. “And” joins repeats or separate records; there may be more than shown. ± gives the spread as reported.
Substance,assay,test system,conditions,half-life
CC12C(=O)C(C)(C(c3ccccc3)=C1c1ccccc1)C1(Br)C(=O)N(CCNCCN)C(=O)C21.O=C(O)C(F)(F)F.O=C(O)C(F)(F)F (stereo not shown),"CO release, HPLC",TRIS-sucrose buffer,"pH 7.4, 37 °C",1.25 h
CC(C)C[C@H](NC(=O)[C@H](CCC(=O)O)NC(=O)[C@H](CCC(=O)O)NC(=O)[C@H](CC(=O)O)NC(=O)[C@H](CCC(=O)O)NC(=O)[C@H](CCC(=O)O)NC(=O)[C@H](CCC(=O)O)NC(=O)[C@@H](N)CC(=O)O)C(=O)O,,human brain homogenate,"1 µM, room temperature",> 2 h
CCCCCCCCCCCCCCCC(=O)NCCCC[C@H](NC(=O)[C@H](CCCCN)NC(=O)[C@H](CCCCN)NC(=O)[C@@H]1CCCN1C(=O)CNC(=O)[C@H](CC(C)C)NC(=O)[C@H](CC(C)C)NC(=O)[C@H](Cc1ccc(O)cc1)NC(=O)CNC(=O)[C@H](C)NC(=O)[C@H](CO)NC(=O)[C@H](CC(N)=O)NC(=O)[C@H](CC(C)C)NC(=O)[C@@H](NC(=O)[C@@H](N)Cc1c[nH]c2ccccc12)[C@@H](C)O)C(=O)N[C@@H](CCCCN)C(N)=O,,25% rat serum,"20 µM, pH 7.5, 37 °C",10 h
Dendroaspis natriuretic peptide,cGMP elevation,human kidney membranes,37 °C,~2.65 h
O=C(NC1CCCCC1)Oc1ccc(F)c(-c2ccccc2)c1,,10 mM borate buffer,"pH 9.0, 37 °C, chemical stability",0.617 ± 0.05 h
CC[C@H](C)[C@H](NC(=O)[C@H](CCCNC(=N)N)NC(=O)[C@H](CC(C)C)NC(=O)[C@@H](N)Cc1ccccc1)C(=O)N[C@@H](CCCNC(=N)N)C(=O)N1CCC[C@H]1C(=O)N[C@@H](CCCCN)C(=O)O,,rat plasma,37 °C,0.7 h
C[N+]1=C(C=CC2=C(OC(=O)CCCc3ccc(N(CCCl)CCCl)cc3)C(=CC=C3N(CCCCCC(=O)O)c4ccccc4C3(C)C)CCC2)C(C)(C)c2ccccc21,ester linker cleavage,RPMI-1640 with 10% FBS,"0.6 µM, pH 7.5, 37 °C, 2.5% DMSO",~6.7 h
O=S(=O)([O-])[O-].[O]=[V+2],item: total vanadium,"human, serum","oral, 50 mg V/day as VOSO4",118 h and 173 h and 71 h and 101 h
CCCCCOc1ccc(-c2cc(-c3ccc(C(=O)N[C@H]4C[C@@H](O)[C@@H](O)NC(=O)[C@@H]5[C@@H](O)[C@@H](C)CN5C(=O)[C@H]([C@H](O)CC(N)=O)NC(=O)[C@H]([C@H](O)[C@@H](O)c5ccc(O)c(OS(=O)(=O)O)c5)NC(=O)[C@@H]5C[C@@H](O)CN5C(=O)[C@H]([C@@H](C)O)NC4=O)cc3)no2)cc1,,"infants below 1000 g, plasma","intravenous infusion, 10 mg/kg/day, day 4, 1 h infusion",10.6 h
C#CCn1c(C)c(C(=O)C(=O)NC(C)(C)C#C)c(C)c1C(=O)Nc1ccc(F)c(F)c1,,mouse liver microsomes,"1 µM, added: ritonavir 0.3 µM",< 0.0833 h
CC(C)C[C@H](NC(=O)[C@H](CC(C)C)NC(=O)[C@H](CCCCN)NC(=O)[C@H](C)NC(=O)[C@H](CC(C)C)NC(=O)[C@H](CCCCN)NC(=O)[C@H](CCCCN)NC(=O)[C@H](CC(C)C)NC(=O)[C@H](C)NC(=O)[C@H](CCCCN)NC(=O)[C@H](CCCCN)NC(=O)[C@H](Cc1ccc(O)cc1)NC(=O)[C@@H](N)CCCCN)C(N)=O,RP-UPLC,human serum 25%,"200 µM, 37 °C",~2 h
N=C(N)NCCC[C@@H](NC(=O)[C@@H](N)Cc1ccccc1)C(=O)N[C@@H](Cc1ccccc1)C(=O)N[C@@H](CCCCN)C(N)=O,,"early Huntington's disease patients, plasma","subcutaneous, 5 mg, day 7",3.13 h
Cc1ncc2n1-c1ccc(Cl)cc1C(c1ccccc1F)=NC2,,"healthy male, plasma","oral, 7.5 mg, alone, arithmetic mean, day 1",4.5 h
O=C(C[18F])NCCCCCC(=O)Nc1ccccc1,,"rhesus macaque, blood plasma","intravenous, 6.07 mCi, slow phase",~0.0917 h
CC[C@H](C)[C@H](N)C(=O)N[C@@H](CC(C)C)C(=O)N[C@@H](CCCNC(=N)N)C(=O)N[C@@H](Cc1c[nH]c2ccccc12)C(=O)N[C@@H](CO)C(=O)N[C@@H](CCCNC(=N)N)C(=O)N[C@@H](CCCCN)C(=O)N[C@@H](CC(C)C)C(=O)N1CCC[C@H]1C(=O)N[C@@H](CS)C(=O)N[C@H](C(=O)N[C@@H](CO)C(=O)O)C(C)C,12G5 antibody competition,human plasma,"20 µM, 37 °C, 100% plasma",~0.1 h
CC[C@H](C)[C@H](NC(=O)CN)C(=O)NCC(=O)N[C@@H](C)C(=O)N[C@H](C(=O)N[C@@H](CC(C)C)C(=O)N[C@@H](CCCCN)C(=O)N[C@H](C(=O)N[C@@H](CC(C)C)C(=O)N[C@H](C(=O)N[C@H](C(=O)NCC(=O)N[C@@H](CC(C)C)C(=O)N1CCC[C@H]1C(=O)N[C@@H](C)C(=O)N[C@@H](CC(C)C)C(=O)N[C@H](C(=O)N[C@@H](CO)C(=O)N[C@@H](Cc1c[nH]c2ccccc12)C(=O)N[C@H](C(=O)N[C@@H](CCCCN)C(=O)N[C@@H](CCCNC(=N)N)C(=O)N[C@@H](CCCCN)C(=O)N[C@@H](CCCNC(=N)N)C(=O)N[C@@H](CCC(N)=O)C(=O)N[C@@H](CCC(N)=O)C(N)=O)[C@@H](C)CC)[C@@H](C)CC)[C@@H](C)O)[C@@H](C)O)C(C)C)C(C)C,HPLC-MS,human serum,37 °C,8 h
NCC(=O)N[C@@H](CO)C(=O)N[C@@H](CO)C(=O)N[C@@H](CCC(N)=O)C(=O)N[C@@H](CO)C(=O)N[C@@H](CO)C(=O)NCC(=O)N[C@@H](Cc1c[nH]c2ccccc12)C(=O)NCC(=O)N[C@@H](CO)C(=O)N[C@@H](CO)C(=O)N[C@@H](CCC(N)=O)C(=O)N[C@@H](CO)C(=O)N[C@@H](CO)C(=O)NCC(N)=O,RP-HPLC and LC-MS,human serum,"50% serum, 37 °C",< 0.5 h
Cc1ncc2n1-c1ccc(Cl)cc1C(c1ccccc1F)=NC2,,"healthy volunteers, plasma","oral, 8 mg, CYP3A probe, geometric mean, added: Echinacea purpurea for 28 days",3.1 h
O=c1[nH]c(Cc2ccccn2)nc2c1cnn2C1CCOCC1,,"healthy men, extensive metabolizers, plasma","oral, 100 mg single dose, tablet, geometric mean",1.85 h

# For quick reference, copied from above:
Substance,assay,test system,conditions,half-life
CC(C)C[C@H](NC(=O)[C@H](CC(C)C)NC(=O)[C@H](CCCCN)NC(=O)[C@H](C)NC(=O)[C@H](CC(C)C)NC(=O)[C@H](CCCCN)NC(=O)[C@H](CCCCN)NC(=O)[C@H](CC(C)C)NC(=O)[C@H](C)NC(=O)[C@H](CCCCN)NC(=O)[C@H](CCCCN)NC(=O)[C@H](Cc1ccc(O)cc1)NC(=O)[C@@H](N)CCCCN)C(N)=O,RP-UPLC,human serum 25%,"200 µM, 37 °C",~2 h
N=C(N)NCCC[C@@H](NC(=O)[C@@H](N)Cc1ccccc1)C(=O)N[C@@H](Cc1ccccc1)C(=O)N[C@@H](CCCCN)C(N)=O,,"early Huntington's disease patients, plasma","subcutaneous, 5 mg, day 7",3.13 h
Cc1ncc2n1-c1ccc(Cl)cc1C(c1ccccc1F)=NC2,,"healthy male, plasma","oral, 7.5 mg, alone, arithmetic mean, day 1",4.5 h
